Published values pooled from the literature.
“And” joins repeats or separate records; there may be more than shown. ± marks the error that the study gave.
CYP2A6: Cytochrome P450 2A6 (CYP2A6, Homo sapiens, UniProt P11509)
UniProt P11509, sequence (whole entry, looked up): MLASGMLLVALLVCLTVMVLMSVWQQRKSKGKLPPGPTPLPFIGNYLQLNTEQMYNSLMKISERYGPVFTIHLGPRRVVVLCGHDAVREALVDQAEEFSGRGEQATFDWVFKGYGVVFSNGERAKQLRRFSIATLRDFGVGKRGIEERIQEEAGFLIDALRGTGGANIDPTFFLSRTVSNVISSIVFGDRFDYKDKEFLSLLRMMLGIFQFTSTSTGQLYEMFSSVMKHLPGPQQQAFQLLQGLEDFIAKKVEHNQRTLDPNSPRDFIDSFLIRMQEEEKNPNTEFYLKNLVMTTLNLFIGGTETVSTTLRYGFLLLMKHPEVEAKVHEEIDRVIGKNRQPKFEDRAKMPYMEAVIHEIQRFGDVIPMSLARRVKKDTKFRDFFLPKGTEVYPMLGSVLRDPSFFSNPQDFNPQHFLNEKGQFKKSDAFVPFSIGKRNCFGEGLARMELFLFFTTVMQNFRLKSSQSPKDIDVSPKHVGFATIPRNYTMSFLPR
CYP3A4: Cytochrome P450 3A4 (CYP3A4, Homo sapiens, UniProt P08684)
UniProt P08684, sequence (whole entry, looked up): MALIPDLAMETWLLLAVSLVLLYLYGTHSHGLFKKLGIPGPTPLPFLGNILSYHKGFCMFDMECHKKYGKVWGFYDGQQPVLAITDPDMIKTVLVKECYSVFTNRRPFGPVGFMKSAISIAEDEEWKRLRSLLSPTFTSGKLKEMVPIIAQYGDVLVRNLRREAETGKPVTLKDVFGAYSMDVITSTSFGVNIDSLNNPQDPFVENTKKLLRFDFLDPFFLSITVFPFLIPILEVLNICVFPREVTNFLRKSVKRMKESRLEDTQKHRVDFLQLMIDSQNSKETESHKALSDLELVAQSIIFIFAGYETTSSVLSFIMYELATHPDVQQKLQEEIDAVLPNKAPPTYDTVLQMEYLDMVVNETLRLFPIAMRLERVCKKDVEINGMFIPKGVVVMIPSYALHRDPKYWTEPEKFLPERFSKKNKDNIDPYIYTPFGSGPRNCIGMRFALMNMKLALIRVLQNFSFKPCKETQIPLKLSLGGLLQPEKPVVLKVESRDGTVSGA
ABCG2: Broad substrate specificity ATP-binding cassette transporter ABCG2 (ABCG2, Homo sapiens, UniProt Q9UNQ0)
UniProt Q9UNQ0, sequence (whole entry, looked up): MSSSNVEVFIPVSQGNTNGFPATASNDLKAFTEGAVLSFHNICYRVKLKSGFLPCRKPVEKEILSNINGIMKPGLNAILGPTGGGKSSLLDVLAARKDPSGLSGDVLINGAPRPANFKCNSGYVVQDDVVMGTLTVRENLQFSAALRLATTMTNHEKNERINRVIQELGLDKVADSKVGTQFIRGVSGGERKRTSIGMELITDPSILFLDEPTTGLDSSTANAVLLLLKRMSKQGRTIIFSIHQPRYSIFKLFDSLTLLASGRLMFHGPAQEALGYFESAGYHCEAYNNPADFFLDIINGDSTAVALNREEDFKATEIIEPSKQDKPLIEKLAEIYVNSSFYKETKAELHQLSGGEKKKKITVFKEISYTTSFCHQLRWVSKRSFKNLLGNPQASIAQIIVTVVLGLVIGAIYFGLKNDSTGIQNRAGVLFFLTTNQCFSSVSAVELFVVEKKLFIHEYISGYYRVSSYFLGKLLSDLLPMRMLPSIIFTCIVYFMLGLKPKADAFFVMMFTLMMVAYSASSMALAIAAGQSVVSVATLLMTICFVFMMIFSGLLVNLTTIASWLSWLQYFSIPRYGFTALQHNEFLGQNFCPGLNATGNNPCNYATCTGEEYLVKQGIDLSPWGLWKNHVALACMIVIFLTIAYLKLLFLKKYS
Ubiquitin carboxyl-terminal hydrolase 39 ZnF-UBD domain: Ubiquitin carboxyl-terminal hydrolase 39, ZnF-UBD domain (Homo sapiens, UniProt Q53GS9)
UniProt Q53GS9, sequence (whole entry, looked up): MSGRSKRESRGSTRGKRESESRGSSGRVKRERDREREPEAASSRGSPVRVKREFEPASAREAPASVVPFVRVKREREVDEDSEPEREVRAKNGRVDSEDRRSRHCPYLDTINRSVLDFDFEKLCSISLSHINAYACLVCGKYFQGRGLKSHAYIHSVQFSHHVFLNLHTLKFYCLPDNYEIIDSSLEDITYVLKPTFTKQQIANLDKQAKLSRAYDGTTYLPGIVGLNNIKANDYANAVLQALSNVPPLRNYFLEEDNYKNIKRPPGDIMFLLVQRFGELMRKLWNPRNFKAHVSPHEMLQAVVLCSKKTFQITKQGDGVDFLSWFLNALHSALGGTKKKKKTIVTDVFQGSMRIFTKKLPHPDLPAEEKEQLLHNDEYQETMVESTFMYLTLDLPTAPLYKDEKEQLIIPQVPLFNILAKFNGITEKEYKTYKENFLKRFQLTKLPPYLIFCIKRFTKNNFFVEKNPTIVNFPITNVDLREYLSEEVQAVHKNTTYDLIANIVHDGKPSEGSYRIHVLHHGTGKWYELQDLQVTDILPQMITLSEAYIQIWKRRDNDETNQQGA
KCNH2: Voltage-gated inwardly rectifying potassium channel KCNH2 (KCNH2, Homo sapiens, UniProt Q12809)
UniProt Q12809, sequence (whole entry, looked up): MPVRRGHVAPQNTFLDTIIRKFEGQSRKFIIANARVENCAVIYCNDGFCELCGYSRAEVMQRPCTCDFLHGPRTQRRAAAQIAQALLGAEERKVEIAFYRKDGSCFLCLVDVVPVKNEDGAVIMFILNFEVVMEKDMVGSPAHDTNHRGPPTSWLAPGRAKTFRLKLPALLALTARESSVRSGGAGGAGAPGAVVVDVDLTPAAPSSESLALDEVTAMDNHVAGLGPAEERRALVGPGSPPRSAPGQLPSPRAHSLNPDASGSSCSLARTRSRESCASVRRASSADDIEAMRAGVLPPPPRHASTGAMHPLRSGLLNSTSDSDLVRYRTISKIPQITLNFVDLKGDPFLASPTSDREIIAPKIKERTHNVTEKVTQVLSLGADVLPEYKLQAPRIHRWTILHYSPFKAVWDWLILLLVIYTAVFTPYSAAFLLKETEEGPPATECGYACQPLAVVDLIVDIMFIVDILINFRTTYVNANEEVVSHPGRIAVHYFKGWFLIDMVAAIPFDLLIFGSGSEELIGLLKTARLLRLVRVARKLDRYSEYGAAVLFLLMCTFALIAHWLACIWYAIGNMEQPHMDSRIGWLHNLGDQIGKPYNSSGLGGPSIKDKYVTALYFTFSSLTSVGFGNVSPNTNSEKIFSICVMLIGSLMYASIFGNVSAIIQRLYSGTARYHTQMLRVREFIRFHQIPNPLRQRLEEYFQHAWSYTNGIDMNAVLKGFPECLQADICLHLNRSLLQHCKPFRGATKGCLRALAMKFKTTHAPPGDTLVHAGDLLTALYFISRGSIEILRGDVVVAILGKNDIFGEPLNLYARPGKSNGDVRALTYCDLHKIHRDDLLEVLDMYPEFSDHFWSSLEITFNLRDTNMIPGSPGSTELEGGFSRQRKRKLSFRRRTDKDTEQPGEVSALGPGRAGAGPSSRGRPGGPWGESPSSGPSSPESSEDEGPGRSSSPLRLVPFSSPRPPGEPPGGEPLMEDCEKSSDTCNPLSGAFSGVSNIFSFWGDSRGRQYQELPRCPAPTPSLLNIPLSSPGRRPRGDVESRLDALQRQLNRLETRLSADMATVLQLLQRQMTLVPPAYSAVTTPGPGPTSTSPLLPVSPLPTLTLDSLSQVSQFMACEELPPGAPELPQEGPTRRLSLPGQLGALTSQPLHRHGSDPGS

c1c[nH]cn1
Kd (CYP2A6; binding): 42.8 µM

Cc1cc(Nc2ncnc3ccc(NC4=NC(C)(CO)CO4)cc23)ccc1Oc1ccn2ncnc2c1 (stereo not drawn)
%AUCextrap, median (CYP3A4; healthy volunteers, plasma; oral, 300 mg tucatinib, day 1): 5.76%

O=C1CCNC(=O)N1
z-scored log2 fold change (binding, equilibrium dialysis LC-MS; 5 µM, thermostabilized A2AR-BRIL construct; relative to: no-protein control, direction not given): -0.773

NC(=NCc1ccccc1)NC(=O)c1nc(Cl)c(N)nc1N
IC50 shift (Genome polyprotein, 3D RNA polymerase (Coxsackievirus B3, UniProt P03313); AMP incorporation, pre-steady-state burst; relative to: without over with Mg2+ preincubation): 5 fold

CC[C@H]1[C@@H](O)[C@@H]2[C@H](CC[C@]3(C)[C@@H]([C@H](C)CCNC(=O)NS(=O)(=O)c4ccc(C(C)(C)C)cc4)CC[C@@H]23)[C@@]2(C)CC[C@@H](O)C[C@@H]12
Vd/F mean (CYP3A4; human, plasma; 10 mg, day 1, compound alone): 521 L

Cc1cc(C)c(CNC(=O)c2cc(Cl)c3c(c2C)O[C@@](C)([C@H]2CC[C@H](N(C)C)CC2)O3)c(=O)[nH]1
total binding capacity Rmax (alpha-1-acid glycoprotein, human; population PK model; human, plasma; oral): 8280 nmol/L

CCOc1cc2ncc(C#N)c(Nc3ccc(OCc4ccccn4)c(Cl)c3)c2cc1NC(=O)/C=C/CN(C)C
efflux ratio (ABCG2; bidirectional transwell permeability; MDCKII cells transfected with ABCG2; 1 µM, 1 h, pH 7.4, with: Ko143 1 µM): 1.4 ± 0.16

O=C(O)CCc1ccc2c(c1)OCO2
Kd (Ubiquitin carboxyl-terminal hydrolase 39 ZnF-UBD domain): > 1000 µM

C[C@]12CCCN1CC1=NNC(=O)c3cc(F)cc4[nH]c2c1c34
uptake rate (ABCG2; substrate; membrane vesicles; 5 µM, with: ATP): 2.2 ± 0.344 pmol/min/mg

[H]/N=C(/N)c1ccc(NCc2nc3cc(C(=O)N(CCC(=O)O)c4ccccn4)ccc3n2C)cc1
AUCinf ratio (P-glycoprotein; substrate; healthy human, plasma; oral, dose not given, adjusted geometric mean, with: vepdegestrant; relative to: with vepdegestrant over alone): 198%

Cc1cc(/C=C/C#N)cc(C)c1Nc1ccnc(Nc2ccc(C#N)cc2)n1
inhibition (KCNH2; hERG current, manual patch clamp; CHO stably expressing hERG; 1 µM): 41.9%

C[C@H]1CN(C2COC2)CCN1c1ccc(Nc2cc(-c3ccnc(N4CCn5c(cc6c5CC(C)(C)C6)C4=O)c3CO)cn(C)c2=O)nc1
remaining compound (CYP2A6; substrate; recombinant enzyme; 1 µM, 60 min): 104 ± 9%

C[C@@H](c1ccc2nccn2c1)n1nnc2ncc(-c3cnn(C)c3)nc21
IC50 (CYP2A6; enzyme activity, inhibitor; pooled human liver microsomes; pH 7.4, reversible inhibition): > 100 µM

CN(C(=O)n1cnc(-c2ccc[n+]([O-])c2)c1)C1CCCCC1
inhibition (CYP2A6; enzyme activity, inhibitor; pooled human liver microsomes; 0.1 to 30 µg/mL): no effect

COc1ccc2c3c([nH]c2c1)[C@H](CC(C)C)N1C(=O)[C@H](CC(=O)NC(C)C)NC(=O)[C@@H]1C3
inhibition (ABCG2; inhibitor, item: protoporphyrin IX; A549; 0.1 µM, 2 h, with: 1 mM ALA): 16.5% and 3.48% and 19.2% and 5.15%

O=c1[nH]cnc2c1ncn2[C@H]1C[C@H](O)[C@@H](CO)O1
z-scored log2 fold change (binding, equilibrium dialysis LC-MS; 5 µM, thermostabilized A2AR-BRIL construct; relative to: no-protein control, direction not given): 0.272

CN1C[C@@H]2C[C@H]1CN2c1cc2c(cc1F)c(=O)c(C(=O)O)cn2C1CC1
efflux ratio (ABCG2; transepithelial transport; MDCK-II transduced with ABCG2; 10 µM, 4 h; relative to: B-A over A-B): 3.22 ± 0.98

c1cncc(OC[C@@H]2CN(CCN3CCc4ccccc43)CCO2)c1
Hill slope (KCNH2; potassium current inhibition, inhibitor, PatchXpress electrophysiology): 1

COc1ccc(F)cc1C(=O)NCc1ccc(-c2nn([C@@H](C)C(F)(F)F)c(N)c2C(N)=O)cc1
AUC(0-inf) (CYP3A4; human, both sexes, plasma; oral, 200 mg, single dose, with: itraconazole): 123 µg·h/mL

O=C(O)CCc1ccccc1
Kd (Ubiquitin carboxyl-terminal hydrolase 39 ZnF-UBD domain): > 1000 µM

S=C=NCc1ccccc1
inhibition (CYP2A6; enzyme activity; concentration not given, 10 min): > 75%

C=CC(=O)N1C[C@H](Nc2ncnc3[nH]ccc23)CC[C@@H]1C
terminal half-life (CYP3A; substrate; human; oral, single dose, with: itraconazole multiple doses): 72 ± 6 min

CC(C)c1nc(N(C)S(C)(=O)=O)nc(-c2ccc(F)cc2)c1/C=C/[C@@H](O)C[C@@H](O)CC(=O)O
Papp (B to A) (ABCG2; substrate; Caco-2; 5 µM, 2 h, with: Ko143 5 µM): 7.6 ± 0.24 ×10⁻⁶ cm/s

Cc1cc(Nc2ncnc3ccc(NC4=NC(C)(C)CO4)cc23)ccc1Oc1ccn2ncnc2c1
Papp A-B (ABCG2; bidirectional transwell permeability; MDCKII cells transfected with ABCG2; 1 µM, 1 h, pH 7.4, with: Ko143 1 µM): 11.7 ± 1.91 ×10⁻⁶ cm/s

N#C[C@H](C[C@@H]1CCCNC1=O)NC(=O)[C@H](CC1CC1)NC(=O)c1cc2cccc(Cl)c2[nH]1
half-life (CYP2A6; NADPH metabolic stability; 2 µM, pH 7.4, 37 °C, 100 pmol/mL enzyme): > 128 min

CC(C)(C)NCc1ccc(Nc2ccnc3cc(Cl)ccc23)cc1O
response (KCNH2; blocker, thallium flux; 10 µM, 30 min; relative to: control): < 50%

CCOc1ccc(Cc2cc([C@]34OC[C@](CO)(O3)[C@@H](O)[C@H](O)[C@H]4O)ccc2Cl)cc1
fraction metabolised (fm) (CYP3A4 (human); reaction phenotyping; human; oral, 25 mg): 0.1
